# Measured values of several laboratories.
# Protocols differ between the studies behind these lines.
# U2AF2: U2AF2 148-342 (Homo sapiens, UniProt P26368)
# Sequence of UniProt P26368 (whole entry, looked up): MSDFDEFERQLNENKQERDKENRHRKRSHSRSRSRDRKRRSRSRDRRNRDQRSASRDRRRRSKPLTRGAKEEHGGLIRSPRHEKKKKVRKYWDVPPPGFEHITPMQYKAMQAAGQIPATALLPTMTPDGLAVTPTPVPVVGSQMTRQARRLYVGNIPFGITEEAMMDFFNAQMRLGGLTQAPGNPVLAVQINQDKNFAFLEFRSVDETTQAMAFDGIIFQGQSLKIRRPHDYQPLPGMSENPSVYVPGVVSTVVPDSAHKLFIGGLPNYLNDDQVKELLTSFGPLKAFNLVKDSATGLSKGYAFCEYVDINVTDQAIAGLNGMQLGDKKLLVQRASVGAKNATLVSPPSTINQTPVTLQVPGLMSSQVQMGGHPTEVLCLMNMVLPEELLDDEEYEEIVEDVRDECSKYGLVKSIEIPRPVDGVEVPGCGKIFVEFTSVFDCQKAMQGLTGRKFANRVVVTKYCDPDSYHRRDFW
# T1: RAD21/STAG2 Scc1 80-1060?, x; chain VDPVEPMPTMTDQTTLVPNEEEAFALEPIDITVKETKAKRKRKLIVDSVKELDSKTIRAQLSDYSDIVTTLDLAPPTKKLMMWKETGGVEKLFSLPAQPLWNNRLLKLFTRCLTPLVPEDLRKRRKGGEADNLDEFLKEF; chain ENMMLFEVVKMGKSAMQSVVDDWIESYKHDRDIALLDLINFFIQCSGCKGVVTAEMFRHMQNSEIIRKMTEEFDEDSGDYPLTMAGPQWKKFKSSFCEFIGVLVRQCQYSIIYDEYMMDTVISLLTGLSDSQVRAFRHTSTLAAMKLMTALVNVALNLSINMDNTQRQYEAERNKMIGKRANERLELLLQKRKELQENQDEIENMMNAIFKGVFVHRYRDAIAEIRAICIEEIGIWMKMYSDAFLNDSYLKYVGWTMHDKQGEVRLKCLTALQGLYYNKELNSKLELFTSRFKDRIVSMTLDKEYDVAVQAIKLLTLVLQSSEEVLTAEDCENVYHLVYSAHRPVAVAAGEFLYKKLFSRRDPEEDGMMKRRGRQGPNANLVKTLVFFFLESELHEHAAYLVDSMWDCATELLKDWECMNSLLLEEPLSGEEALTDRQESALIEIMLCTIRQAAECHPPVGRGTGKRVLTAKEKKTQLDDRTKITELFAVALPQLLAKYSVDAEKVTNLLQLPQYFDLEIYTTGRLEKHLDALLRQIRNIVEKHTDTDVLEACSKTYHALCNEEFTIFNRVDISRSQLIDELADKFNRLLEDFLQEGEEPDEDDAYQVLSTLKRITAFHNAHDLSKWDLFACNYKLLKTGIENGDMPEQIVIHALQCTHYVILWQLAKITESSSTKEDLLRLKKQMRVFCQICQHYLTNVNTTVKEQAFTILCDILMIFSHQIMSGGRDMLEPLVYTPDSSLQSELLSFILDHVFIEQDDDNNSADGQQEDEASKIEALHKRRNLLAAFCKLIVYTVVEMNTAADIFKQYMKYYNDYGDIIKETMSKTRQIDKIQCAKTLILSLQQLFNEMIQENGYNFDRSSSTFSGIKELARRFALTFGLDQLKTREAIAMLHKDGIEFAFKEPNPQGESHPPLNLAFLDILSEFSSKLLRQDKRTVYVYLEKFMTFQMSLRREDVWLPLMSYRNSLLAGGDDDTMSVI
# B1: NOTCH3 EGF5-12 197-505 (Homo sapiens, UniProt Q9UM47); sequence looked up; chain PAVPCAPSPCRNGGTCRQSGDLTYDCACLPGFEGQNCEVNVDDCPGHRCLNGGTCVDGVNTYNCQCPPEWTGQFCTEDVDECQLQPNACHNGGTCFNTLGGHSCVCVNGWTGESCSQNIDDCATAVCFHGATCHDRVASFYCACPMGKTGLLCHLDDACVSNPCHEDAICDTNPVNGRAICTCPPGFTGGACDQDVDECSIGANPCEHLGRCVNTQGSFLCQCGRGYTGPRCETDVNECLSGPCRNQATCLDRIGQFTCICMAGFTGTYCEVDIDECQSSPCVNGGVCKDRVNGFSCTCPSGFSGSTCQ
# B2: TOMM20 cytosolic domain, 62-127 (Homo sapiens, UniProt Q15388); N-terminal cysteine ATTO550 label; chain CDAEAVQKFFLEEIQLGEELLAQGEYEKGVDHLTNAIAVCGQPQQLLQVLQQTLPPPVFQMLLTKLP
# B3: Creb1 bZIP 270-341 C300S/C310S/C337S (Rattus norvegicus, UniProt P15337-1); sequence looked up; chain SSPALPTQPAEEAARKREVRLMKNREAARESRRKKKEYVKSLENRVAVLENQNKTLIEELKALKDLYSHKSD
# B4: Igf2 E-peptide 92-180 S95C (Mus musculus, UniProt P09535); sequence looked up; chain RDVCTSQAVLPDDFPRYPVGKFFQYDTWRQSAGRLRRGLPALLRARRGRMLAKELKEFREAKRHRPLIVLPPKDPAHGGASSEMSSNHQ
# B5: COX5A (Saccharomyces cerevisiae, UniProt P00424); sequence looked up; chain AQTHALSNAAVMDLQSRWENMPSTEQQDIVSKLSERQKLPWAQLTEPEKQAVWYISYGEWGPRRPVLNKGDSSFIAKGVAAGLLFSVGLFAVVRMAGGQDAKTMNKEWQLKSDEYLKSKNANPWGGYSQVQSK
# B6: TIM10 8-93 (Saccharomyces cerevisiae, UniProt P87108); sequence looked up; chain GGQPQLSSQQKIQAAEAELDLVTDMFNKLVNNCYKKCINTSYSEGELNKNESSCLDRCVAKYFETNVQVGENMQKMGQSFNAAGKF
# B7: ATP synthase subunit gamma, human; sequence looked up; chain ATLKDITRRLKSIKNIQKITKSMKMVAAAKYARAERELKPARIYGLGSLALYEKADIKGPEDKKKHLLIGVSSDRGLCGAIHSSIAKQMKSEVATLTAAGKEVMLVGIGDKIRGILYRTHSDQFLVAFKEVGRKPPTFGDASVIALELLNSGYEFDEGSIIFNKFRSVISYKTEEKPIFSLNTVASADSMSIYDDIDADVLQNYQEYNLANIIYYSLKESTTSEQSARMTAMDNASKNASEMIDKLTLTFNRTRQAVITKELIEIISGAAALD
# B8: general transcription factor II-I (human); sequence looked up; chain AQVAMSTLPVEDEESSESRMVVTFLMSALESMCKELAKSKAEVACIAVYETDVFVVGTERGRAFVNTRKDFQKDFVKYCVEEEEKAAEMHKMKSTTQANRMSVDAVEIETLRKTVEDYFCFCYGKALGKSTVVPVPYEKMLRDQSAVVVQGLPEGVAFKHPENYDLATLKWILENKAGISFIIKRPFLEPKKHVGGRVMVTDADRSILSPGGSCGPIKVKTEPTEDSGISLEMAAVTVKEESEDPDYYQYNIQAGPSETDDVDEKQPLSKPLQGSHHSSEGNEGTEMEVPAEDSTQHVPSETSEDPEVEVTIEDDDYSPPSKRPKANELPQPPVPEPANAGKRKVREFNFEKWNARITDLRKQVEELFERKYAQAIKAKGPVTIPYPLFQSHVEDLYVEGLPEGIPFRRPSTYGIPRLERILLAKERIRFVIKKHELLNSTREDLQLDKPASGVKEEWYARITKLRKMVDQLFCKKFAEALGSTEAKAVPYQKFEAHPNDLYVEGLPENIPFRSPSWYGIPRLEKIIQVGNRIKFVIKRPELLTHSTTEVTQPRTNTPVKEDWNVRITKLRKQVEEIFNLKFAQALGLTEAVKVPYPVFESNPEFLYVEGLPEGIPFRSPTWFGIPRLERIVRGSNKIKFVVKKPELVISYLPPGMASKINTKALQSPKRPRSPGSNSKVPEIEVTVEGPNNNNPQTSAVRTPTQTNGSNVPFKPRGREFSFEAWNAKITDLKQKVENLFNEKCGEALGLKQAVKVPFALFESFPEDFYVEGLPEGVPFRRPSTFGIPRLEKILRNKAKIKFIIKKPEMFETAIKESTSSKSPPRKINSSPNVNTTASGVEDLNIIQVTIPDDDNERLSKVEKARQLREQVNDLFSRKFGEAIGMGFPVKVPYRKITINPGCVVVDGMPPGVSFKAPSYLEISSMRRILDSAEFIKFTVIRPFPGLVINNQLVDQSESEGPVIQESAEPSQLEVPATEEIKETDGSSQIKQEPDPTW
# B9: AEBP2 407-498 (Homo sapiens, UniProt Q6ZN18-2); sequence looked up; chain RHRAICFNLSAHIESLGKGHSVVFHSTVIAKRKEDSGKIKLLLHWMPEDILPDVWVNESERHQLKTKVVHLSKLPKDTALLLDPNIYRTMPQ
# B10: EFR3B 716-787 (Homo sapiens, UniProt Q9Y2G0); chain VPAEEITYETLKKAIVDSVAVEEQERERRRQVVEKFQKAPFEEIAAHCGARASLLQSKLNQIFEITIRPPPS
# B11: ptsO 1-85 (Escherichia coli, UniProt P0A9N0); sequence looked up; chain MTVKQTVEITNKLGMHARPAMKLFELMQGFDAEVLLRNDEGTEAEANSVIALLMLDSAKGRQIEVEATGPQEEEALAAVIALFNS
# B12: mecA (Bacillus subtilis, UniProt P37958); chain MEIERINEHTVKFYMSYGDIEDRGFDREEIWYNRERSEELFWEVMDEVHEEEEFAVEGPLWIQVQALDKGLEIIVTKAQLSKDGQKLELPIPEDKKQEPASEDLDALLDDFQKEEQAVNQEEKEQKLQFVLRFGDFEDVISLSKLNVNGSKTTLYSFENRYYLYVDFCNMTDEEVENQLSILLEYATESSISIHRLEEYGKLIISEHALETIKKHFAS
# B13: ABCG16 1-145 (Arabidopsis thaliana, UniProt Q9M2V7); sequence looked up; chain MSRILVEDDNATPFHSMEIISSSLTLGQLLKNVSDVRKVEVGDETPVHEFFDRDGSSLDGDNDHLMRPVPFVLSFNNLTYNVSVRRKLDFHDLVPWRRTSFSKTKTLLDNISGETRDGEILAVLGASGSGKSTLIDALANRIAKG
# B14: RNF216 260-509 (Homo sapiens, UniProt Q9NWF9-2); sequence looked up; chain MQESQEPNLENIWGQEAAEVDQELVELLVKETEARFPDVANGFIEEIIHFKNYYDLNVLCNFLLENPDYPKREDRIIINPSSSLLASQDETKLPKIDFFDYSKLTPLDQRCFIQAADLLMADFKVLSSQDIKWALHELKGHYAITRKALSDAIKKWQELSPETSGKRKKRKQMNQYSYIDFKFEQGDIKIEKRMFFLENKRRHCRSYDRRALLPAVQQEQEFYEQKIKEMAEHEDFLLALQMNEEQYQKD
# B15: RB1CC1 1490-1594 (Homo sapiens, UniProt Q8TDY2); chain SRHSEKIAIRDFQVGDLVLIILDERHDNYVLFTVSPTLYFLHSESLPALDLKPGEGASGASRRPWVLGKVMEKEYCQAKKAQNRFKVPLGTKFYRVKAVSWNKKV
# Sequence of UniProt Q06671 (whole entry, looked up): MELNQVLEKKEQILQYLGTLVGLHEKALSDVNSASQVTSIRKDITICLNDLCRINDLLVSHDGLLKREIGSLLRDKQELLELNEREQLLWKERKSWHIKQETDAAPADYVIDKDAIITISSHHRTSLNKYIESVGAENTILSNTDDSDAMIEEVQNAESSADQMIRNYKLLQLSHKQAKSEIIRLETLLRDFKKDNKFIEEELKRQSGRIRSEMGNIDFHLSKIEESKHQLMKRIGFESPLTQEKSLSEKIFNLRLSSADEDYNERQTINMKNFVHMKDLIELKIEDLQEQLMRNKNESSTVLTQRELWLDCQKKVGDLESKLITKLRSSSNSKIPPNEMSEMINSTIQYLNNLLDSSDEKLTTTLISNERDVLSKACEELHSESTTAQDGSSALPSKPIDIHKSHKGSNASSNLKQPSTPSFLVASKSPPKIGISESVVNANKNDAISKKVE
# Sequence of UniProt Q12142 (whole entry, looked up): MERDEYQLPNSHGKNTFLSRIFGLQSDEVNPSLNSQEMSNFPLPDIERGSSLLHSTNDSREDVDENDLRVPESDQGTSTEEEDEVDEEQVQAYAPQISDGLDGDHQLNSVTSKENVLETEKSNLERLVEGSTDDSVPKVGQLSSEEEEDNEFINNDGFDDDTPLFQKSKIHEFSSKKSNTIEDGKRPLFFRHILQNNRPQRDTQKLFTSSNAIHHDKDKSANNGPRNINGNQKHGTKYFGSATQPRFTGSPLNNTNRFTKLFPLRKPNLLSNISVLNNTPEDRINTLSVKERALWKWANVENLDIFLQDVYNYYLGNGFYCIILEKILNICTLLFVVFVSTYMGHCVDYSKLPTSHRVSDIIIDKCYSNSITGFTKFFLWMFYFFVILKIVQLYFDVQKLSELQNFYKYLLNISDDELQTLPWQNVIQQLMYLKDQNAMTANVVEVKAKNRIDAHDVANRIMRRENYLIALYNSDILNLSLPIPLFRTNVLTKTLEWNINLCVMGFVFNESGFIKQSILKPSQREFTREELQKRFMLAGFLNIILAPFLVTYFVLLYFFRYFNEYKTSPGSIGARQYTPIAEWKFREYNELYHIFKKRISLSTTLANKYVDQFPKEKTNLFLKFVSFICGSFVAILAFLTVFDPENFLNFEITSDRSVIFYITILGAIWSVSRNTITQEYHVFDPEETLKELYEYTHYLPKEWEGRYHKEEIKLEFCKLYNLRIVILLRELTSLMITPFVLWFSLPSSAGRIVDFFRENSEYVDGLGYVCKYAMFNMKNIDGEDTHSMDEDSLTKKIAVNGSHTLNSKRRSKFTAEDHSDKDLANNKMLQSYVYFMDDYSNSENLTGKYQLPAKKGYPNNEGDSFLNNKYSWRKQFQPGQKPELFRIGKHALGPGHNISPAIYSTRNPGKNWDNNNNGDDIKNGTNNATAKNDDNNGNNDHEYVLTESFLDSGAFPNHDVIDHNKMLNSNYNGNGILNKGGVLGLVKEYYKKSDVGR
# Sequence of UniProt P84091 (whole entry, looked up): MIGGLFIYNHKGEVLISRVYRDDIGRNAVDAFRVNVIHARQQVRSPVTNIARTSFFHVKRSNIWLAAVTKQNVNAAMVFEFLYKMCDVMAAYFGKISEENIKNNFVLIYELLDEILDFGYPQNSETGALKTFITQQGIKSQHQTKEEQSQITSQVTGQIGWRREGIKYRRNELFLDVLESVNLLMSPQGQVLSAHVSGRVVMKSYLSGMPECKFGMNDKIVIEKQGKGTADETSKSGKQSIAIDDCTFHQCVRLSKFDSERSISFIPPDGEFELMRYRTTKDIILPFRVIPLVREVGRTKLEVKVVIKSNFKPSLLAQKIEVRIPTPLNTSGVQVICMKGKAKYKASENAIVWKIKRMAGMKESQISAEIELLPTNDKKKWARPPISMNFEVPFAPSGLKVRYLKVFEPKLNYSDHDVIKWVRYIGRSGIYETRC
# Sequence of UniProt Q9NR61 (whole entry, unmodified, looked up): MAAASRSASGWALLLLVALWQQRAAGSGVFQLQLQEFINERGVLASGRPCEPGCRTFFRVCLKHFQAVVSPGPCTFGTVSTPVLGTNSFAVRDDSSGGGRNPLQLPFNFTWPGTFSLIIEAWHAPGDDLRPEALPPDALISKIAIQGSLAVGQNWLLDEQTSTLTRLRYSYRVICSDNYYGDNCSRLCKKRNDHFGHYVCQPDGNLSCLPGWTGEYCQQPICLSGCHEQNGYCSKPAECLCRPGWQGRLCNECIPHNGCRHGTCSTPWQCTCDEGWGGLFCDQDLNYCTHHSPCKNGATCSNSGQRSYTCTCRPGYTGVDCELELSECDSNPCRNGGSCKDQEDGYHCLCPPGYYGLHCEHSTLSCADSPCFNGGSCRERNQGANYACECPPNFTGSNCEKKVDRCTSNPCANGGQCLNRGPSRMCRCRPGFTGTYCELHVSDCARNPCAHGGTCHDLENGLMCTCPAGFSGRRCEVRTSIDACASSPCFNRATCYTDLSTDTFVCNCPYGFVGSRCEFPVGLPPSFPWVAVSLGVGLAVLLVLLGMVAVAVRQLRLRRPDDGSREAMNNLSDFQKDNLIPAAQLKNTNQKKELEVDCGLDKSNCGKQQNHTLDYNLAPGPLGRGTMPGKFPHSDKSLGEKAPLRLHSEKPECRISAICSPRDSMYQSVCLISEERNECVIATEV
# Sequence of UniProt P20029 (whole entry, unmodified, looked up): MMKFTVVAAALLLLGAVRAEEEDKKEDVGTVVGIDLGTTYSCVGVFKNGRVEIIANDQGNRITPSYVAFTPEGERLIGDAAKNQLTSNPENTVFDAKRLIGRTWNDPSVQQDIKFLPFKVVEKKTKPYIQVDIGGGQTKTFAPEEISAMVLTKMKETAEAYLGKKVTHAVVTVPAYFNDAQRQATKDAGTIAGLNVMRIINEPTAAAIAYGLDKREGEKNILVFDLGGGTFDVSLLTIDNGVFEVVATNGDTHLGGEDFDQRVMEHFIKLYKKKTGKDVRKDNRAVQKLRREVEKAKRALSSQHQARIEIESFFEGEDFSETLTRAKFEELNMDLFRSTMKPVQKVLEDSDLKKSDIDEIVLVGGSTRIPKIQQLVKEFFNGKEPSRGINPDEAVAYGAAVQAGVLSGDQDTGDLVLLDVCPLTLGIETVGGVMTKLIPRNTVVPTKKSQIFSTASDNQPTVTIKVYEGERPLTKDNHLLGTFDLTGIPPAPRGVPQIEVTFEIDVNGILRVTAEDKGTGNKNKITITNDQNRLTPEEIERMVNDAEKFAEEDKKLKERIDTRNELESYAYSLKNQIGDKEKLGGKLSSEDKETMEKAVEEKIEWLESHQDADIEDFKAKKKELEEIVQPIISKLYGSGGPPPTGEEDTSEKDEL
# Sequence of UniProt Q99638 (whole entry, looked up): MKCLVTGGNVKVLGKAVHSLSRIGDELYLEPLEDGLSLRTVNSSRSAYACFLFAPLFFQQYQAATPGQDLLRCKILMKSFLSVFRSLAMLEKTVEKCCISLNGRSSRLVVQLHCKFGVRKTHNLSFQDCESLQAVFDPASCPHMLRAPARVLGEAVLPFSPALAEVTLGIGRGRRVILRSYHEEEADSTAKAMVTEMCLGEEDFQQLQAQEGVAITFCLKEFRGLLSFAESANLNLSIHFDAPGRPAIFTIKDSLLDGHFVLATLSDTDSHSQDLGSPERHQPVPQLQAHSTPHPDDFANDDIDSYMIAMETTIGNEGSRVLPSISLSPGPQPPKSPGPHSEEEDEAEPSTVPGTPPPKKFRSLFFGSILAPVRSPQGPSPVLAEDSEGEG
# Sequence of UniProt Q13137 (whole entry, looked up): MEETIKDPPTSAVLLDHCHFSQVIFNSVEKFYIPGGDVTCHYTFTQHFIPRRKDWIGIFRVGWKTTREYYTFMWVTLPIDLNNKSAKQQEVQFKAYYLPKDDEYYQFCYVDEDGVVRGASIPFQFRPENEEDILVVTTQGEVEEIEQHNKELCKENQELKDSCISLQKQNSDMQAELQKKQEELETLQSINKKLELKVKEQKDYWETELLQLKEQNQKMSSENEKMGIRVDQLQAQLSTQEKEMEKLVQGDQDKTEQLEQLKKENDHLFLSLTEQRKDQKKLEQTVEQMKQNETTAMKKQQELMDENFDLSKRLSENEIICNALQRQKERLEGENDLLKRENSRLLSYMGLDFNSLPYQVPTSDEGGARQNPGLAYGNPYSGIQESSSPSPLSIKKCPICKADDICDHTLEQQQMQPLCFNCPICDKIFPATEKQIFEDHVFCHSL
# Sequence of UniProt P07256 (whole entry, looked up): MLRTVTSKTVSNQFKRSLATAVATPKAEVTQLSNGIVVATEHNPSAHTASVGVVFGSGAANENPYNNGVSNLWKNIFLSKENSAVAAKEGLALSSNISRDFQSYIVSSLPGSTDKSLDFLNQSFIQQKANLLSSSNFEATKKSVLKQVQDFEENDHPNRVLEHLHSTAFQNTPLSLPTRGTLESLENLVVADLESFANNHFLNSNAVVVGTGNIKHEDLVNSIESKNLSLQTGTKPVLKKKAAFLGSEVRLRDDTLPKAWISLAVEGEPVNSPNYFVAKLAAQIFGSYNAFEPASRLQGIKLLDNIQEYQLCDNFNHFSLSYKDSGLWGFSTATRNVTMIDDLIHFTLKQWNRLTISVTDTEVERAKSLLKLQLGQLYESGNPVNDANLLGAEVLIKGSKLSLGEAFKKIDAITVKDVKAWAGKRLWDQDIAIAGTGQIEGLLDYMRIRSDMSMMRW
Molecule,tested on,assay,system,conditions,scale,endpoint,value
B1 (NOTCH3 EGF5-12 197-505),"DLL4 27-400 G28S/F107L/I143F/H194Y/L206P (Homo sapiens, UniProt Q9NR61)",SPR,,,,binding,binds
"GTSSFKESALRKQSLYLKFDPLLRDSPGR (TACC3 545-573 (Homo sapiens, UniProt Q9Y6A5); sequence looked up)","CLTC 358-574 (Homo sapiens, UniProt Q00610)",NMR titration,,,,binding,binds
B2,"Fem1b N26E (Mus musculus, UniProt Q9Z2G0)",fluorescence polarisation,,,,binding,binds
"GVGGSWGVFSSGESPAIVPDK (TET3 peptide 1451-1471 (Homo sapiens, UniProt O43151); sequence looked up)","KMT2C 1083-1143 (Homo sapiens, UniProt Q8NEZ4)",NMR titration,peptide,,,binding,binds
B3,"Creb1 bZIP-BR 270-341 S270C/C300S/C337S (Rattus norvegicus, UniProt P15337-1)",smFRET,,,,binding,binds
B4 (Igf2 E-peptide 92-180 S95C),"HSPA5 D27C, FITC label (UniProt P20029)",fluorescence polarisation,,with: ATP,,binding,binds
"ASEFFVDGLDSDERTLEHFKRWLQPDKVAI (CCDC32 121-150 (Mus musculus, UniProt Q8BS39))","Ap2m1 122-435 (Mus musculus, UniProt P84091)",pull-down,,,,binding,binds
"HEEWEMVPRHS (STBD1 200-210 (Homo sapiens, UniProt O95210))","MAP1LC3A (Homo sapiens, UniProt Q9H492)",ITC,,,,binding,binds
AUUUUCUAA (ssRNA),U2AF2,sequencing of bound RNA,RNA,motif only,,Kd,9.21 µM
"HGKNTFLSRIFGL (ATG9 12-24 (Saccharomyces cerevisiae, UniProt Q12142); sequence looked up)","Atg23 full-length, dimer (yeast, UniProt Q06671)",pull-down,,"5 µM, 15 min, pH 8, 4 °C, NaCl 150 mM",,binding,binds
KEAFWDRCLSVINLMYSKMLQINA,"Cyclin-dependent kinase 5, with p25 (CDK5, Homo sapiens, UniProt Q00535)","phosphotransferase activity, radiometric",peptide,"concentration not given, 10% DMSO, with: histone substrate",baseline: p5-WT peptide,activity change,29%
B5 (COX5A),"COR1 mature (Saccharomyces cerevisiae, UniProt P07256)",cryo-EM,,,,binding,binds
"HGKNTFLSRIFGL (ATG9 12-24 (Saccharomyces cerevisiae, UniProt Q12142); sequence looked up)","ATG23 full-length, dimer (Saccharomyces cerevisiae, UniProt Q06671)",pull-down,,"15 minutes, 4 °C",,binding,binds
B6 (TIM10 8-93),"TIM9 1-87 (Saccharomyces cerevisiae, UniProt O74700)",SEC,,,,binding,binds
"RAD9A (Homo sapiens, UniProt Q99638)","LIG1 233-919 (Homo sapiens, UniProt P18858)",pull-down,,"1 hr, 4 °C",,binding,binds
B7,CYB5R4 knockout human cells,"PP4 interaction, 3xFLAG-PP4C IP-MS",,concentration not given,baseline: CYB5R4 KO over parental,log2 fold change,-0.48
AGUUUUUUU (ssRNA),U2AF2,sequencing of bound RNA,RNA,motif only,,Kd,2.23 µM
B8,PP6C (human),"co-immunoprecipitation, IP-MS",CYB5R4 knockout cells,concentration not given,baseline: CYB5R4 knockout over parental,log2 fold change,0.24
B9 (AEBP2 407-498),SUZ12/RBBP4 SUZ12 76-545 (Homo sapiens),SEC,,,,binding,binds
B10 (EFR3B 716-787),TTC7A/FAM126B FAM126B 1-308,BLI,,,,binding,binds
B11 (ptsO 1-85),"ptsP 170-424 H356Q (Escherichia coli, UniProt P37177)",SEC,,,,binding,binds
B12 (mecA),"clpC E280A/E618A (Bacillus subtilis, UniProt P37571)",SEC,,with: ATP,,binding,binds
"TGDPFGFDSDD (WAPL 69-79 (Homo sapiens, UniProt Q7Z5K2))","T1, RAD21/STAG2 Scc1 80-1060?, x",pull-down,peptide,,,binding,binds
B13 (ABCG16 1-145),"BAM2 691-961 (Arabidopsis thaliana, UniProt Q9M2Z1)",pull-down,,,,binding,binds
B14 (RNF216 260-509),"MAPT (Homo sapiens, UniProt P10636-6)",pull-down,,,,binding,binds
B15 (RB1CC1 1490-1594),"CALCOCO2 10-141 (Homo sapiens, UniProt Q13137)",SEC,,,,binding,binds

# Repeated from above:
Molecule,tested on,assay,system,conditions,scale,endpoint,value
B6 (TIM10 8-93),"TIM9 1-87 (Saccharomyces cerevisiae, UniProt O74700)",SEC,,,,binding,binds
"RAD9A (Homo sapiens, UniProt Q99638)","LIG1 233-919 (Homo sapiens, UniProt P18858)",pull-down,,"1 hr, 4 °C",,binding,binds
